Experimental data of several laboratories.
Parts stem from different laboratories: compare values within a part only.

Block 1
Target: Centromere-binding protein 1, full length, His-tagged (CBF1, Saccharomyces cerevisiae, UniProt P17106, residues 1-351)
Sequence of UniProt P17106 (whole entry, looked up): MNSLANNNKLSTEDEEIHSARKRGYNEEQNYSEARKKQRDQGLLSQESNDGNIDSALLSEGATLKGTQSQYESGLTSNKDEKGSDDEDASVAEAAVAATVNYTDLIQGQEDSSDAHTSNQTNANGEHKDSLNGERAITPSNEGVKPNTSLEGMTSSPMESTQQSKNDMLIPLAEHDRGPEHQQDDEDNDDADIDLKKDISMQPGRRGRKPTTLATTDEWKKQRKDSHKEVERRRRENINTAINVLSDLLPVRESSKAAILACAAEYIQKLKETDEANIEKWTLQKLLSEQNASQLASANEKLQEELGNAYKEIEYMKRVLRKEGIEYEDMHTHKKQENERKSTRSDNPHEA
Technique: competition protein-binding microarray
Molecule type: double-stranded DNA, one strand shown
Medium: in vitro
Tested at: 2 µM
Notes: whole 60-bp probe, lowest competitor level
With: Pho4 competitor, 0.05 µM
Direction: higher = stronger binding
Oligonucleotide | fluorescence intensity
CGTCCTAGTGATTGTCACGAAACTTCCATGAGGAAGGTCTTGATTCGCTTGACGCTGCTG | 94 a.u.
GAACTACGCTACTACGTCGTGGGTATTCTGGAGAAGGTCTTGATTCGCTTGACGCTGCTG | 64.7 a.u.
CGGGGTTAAGTTTGGTCAGTGGGTGGCTTGCAGCAGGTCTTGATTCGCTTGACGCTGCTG | 82.2 a.u.
GAAAGAGTGGCTTATCATGTGTAATAGGCGAATAAGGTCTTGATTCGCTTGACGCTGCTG | 125 a.u.
ATAAGCCAGAATCCACACGGGAACTTCGGACTTTGCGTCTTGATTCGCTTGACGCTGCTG | 72.1 a.u.
TTCTGAATATGCGGCCACGTGTGGAATGATGTCCTGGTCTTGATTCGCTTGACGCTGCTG | 1020 a.u.
AAATTACTAAGTTGACGTGTGGGTGACGCCGTATGAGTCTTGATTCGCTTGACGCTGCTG | 73.1 a.u.
ACAACCCTTCCCTTACGCGTGGTCGCTCCCAGTCGAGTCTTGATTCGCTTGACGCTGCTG | 58.1 a.u.
TCAAAAAAGCCAAAAAGGGTGTGCCTGTAGATTGTGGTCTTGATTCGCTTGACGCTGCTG | 63.1 a.u.
AAAGCGGTAATTTGATGCGTGGGTGCAGATATCTATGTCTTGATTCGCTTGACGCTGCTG | 75.6 a.u.
CTAACGAAGGTTTGTCACCCTACTTACAAGCCAAGTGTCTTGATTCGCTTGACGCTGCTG | 62.2 a.u.
TGCGCAACAACTTTTCACGTGTTATTATGTCTAGAAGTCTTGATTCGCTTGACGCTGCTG | 1170 a.u.
CTGTCCAGCGCAGACCACGTGGCCCTTCCTGGTGCTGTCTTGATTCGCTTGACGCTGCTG | 2120 a.u.
CTAACGAAGGTTTGGCAGGTGGGTGACAAGCCAAGTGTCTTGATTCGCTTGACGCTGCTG | 71 a.u.
CCACTTTTTTTCAAATGTGTGACGAACCCATACCCCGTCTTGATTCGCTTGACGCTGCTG | 79.8 a.u.
CTCTAATCCCACCACCACATGCCACACTCACCCTCAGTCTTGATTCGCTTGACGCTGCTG | 85.1 a.u.
GGCAAAATCAATCTTGACGTGCCAGATATGTTAAAAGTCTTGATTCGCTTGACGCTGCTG | 70.2 a.u.
CGGGGTTAAGTTTGTCACACGACTTGCTTGCAGCAGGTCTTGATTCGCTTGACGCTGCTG | 117 a.u.
TTCCTGGTAGTCTCGCATACGTTTGTCAGTGGCATTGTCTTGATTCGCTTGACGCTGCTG | 81.5 a.u.

Block 2
Target: RNA binding protein fox-1 homolog 2, RRM domain, GST-SBP tag (RBFOX2, Homo sapiens, UniProt O43251-10, residues 100-194)
Technique: RNA Bind-n-Seq
Molecule type: RNA
Medium: in vitro
Tested at: 365 nM
Notes: natural RNA segment, single round, ends assumed
Baseline: no-protein control
Direction: higher = stronger binding
Target sequence (chain): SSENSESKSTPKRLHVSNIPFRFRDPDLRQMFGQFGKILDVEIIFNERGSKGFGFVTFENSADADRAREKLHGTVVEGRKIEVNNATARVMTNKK
Oligonucleotide | RBNS enrichment (R)
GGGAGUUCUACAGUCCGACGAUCUACAUAAUCCGACCUCAUAGCAGCAUUACAUUCUUUGCCGUGAUAAACAUUCCACUCCUGCUUUCCUAAGGAUGAAACAGUGAUAAUGUGAACUCAAAUGAGGUUUCCUGUGGAAUUCUCGGGUGCCAA | 0.393
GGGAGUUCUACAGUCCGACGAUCGGAAUGUCGGGACCACACUGUGCGGCUUCUCGGCACAAAGCGGAGGGAGGCUGUGGUCGCUGCCGGCCUAGGUGUCCCAGGUGCCCCGCCUUUCUCUGGGACACAGUUGGUGGAAUUCUCGGGUGCCAA | 0.394
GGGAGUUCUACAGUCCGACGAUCGGAAGGCAGCCUUUCAGGUAGCAAGAUUAAAUAUUGCUGUUGCCAAAUAGUAUUUGAAAUAAUACCAGAAAACGGGGACCACAGUACUGUUCGAUGUUUUCAAGUGAGAAUGGAAUUCUCGGGUGCCAA | 0.323
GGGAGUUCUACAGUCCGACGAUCGGAGCAGCCGGCCUGUGACACCUGAAGCCGCCAGCUCGCCACAGGGGCCAGGGAGCUGGAGAUGGCCUCCAGCGUCAGUGCCAAGACUGAGCGGGCCCUCCAGUGUUGUCUGGAAUUCUCGGGUGCCAA | 0.501
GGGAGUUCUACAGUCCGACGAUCUGCCCUAUUUGUAGUCUCCACCUCUCUGCACAGCUCCUUCUGGGUGGUCCUCAGCAGGGUUUUGACCUUGAUUGGCGGCUACUCUGGCAACCACUGCCCAUUCUUCUAAUUGGAAUUCUCGGGUGCCAA | 0.378
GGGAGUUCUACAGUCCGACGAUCCAUUCUCUUUUGUUUGCAAAUUGGUCAACAAAAUUUGCAAAGUGAUUUCAGGAGAGAGCAGCUUUGAGGAAUGUGGAAAAUCAUAAUUGCCGUCUGGACCAUUGAUUGAUUGGAAUUCUCGGGUGCCAA | 0.507
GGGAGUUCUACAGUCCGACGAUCCCUGGUGAAAAAUAAAAACCGGAGAAGUCAUUUGGAGGGCCAUCCUAAAGCUCUACUGUAUAAUGACGCCAGCAUGAGCCAGAAAGGGAAGGGCAGUGGGACUUGAGUAUUGGAAUUCUCGGGUGCCAA | 2.78
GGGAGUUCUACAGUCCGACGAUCUUGUUACAUCCAGGGCAUGGCAGUGGCCUCAGCCUUAAACUUUUGUUCCUACUCCCACCCUCAGCGAACUGGGCAGCACGGGGAGGGUUUGGCUACCCCUGCCCAUCCCUUGGAAUUCUCGGGUGCCAA | 0.477

Block 3
Target: Histone acetyltransferase KAT6A, winged helix 1, GST fusion (KAT6A, Homo sapiens, UniProt Q92794, residues 1-85)
Technique: protein binding microarray
Molecule type: double-stranded DNA, one strand shown
Medium: in vitro
Tested at: not given
Notes: 8-mer, flanks averaged, mean of 2 arrays, mostly near background
Baseline: not given
Direction: higher = stronger binding
Target sequence (chain): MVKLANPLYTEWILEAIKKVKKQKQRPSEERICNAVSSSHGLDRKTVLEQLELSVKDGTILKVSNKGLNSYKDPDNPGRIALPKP
Oligonucleotide | E-score
CTGCCGGC | 0.418
AATTTAAG | -0.129
GACATCGC | 0.217
GGTTTAAC | 0.0446
ACTAACAT | -0.116
AACCCTCC | -0.119
ACAGAAAA | -0.0578
CCAACAAA | -0.142
CCAGGGAA | -0.144
GGAGCGGA | 0.223
AAGTAAAA | -0.259
GAGGAATA | -0.203
ATCTCATA | -0.232
CTGGGTTC | -0.0969
CGGGCATA | 0.245
GCGCGTCC | 0.392
GGCCAGTA | -0.0696
GAGGCGGA | 0.186
CACTTACG | 0.033
ACAGGCTG | -0.155
CTTTATGC | 0.0175

Block 4
Target: Ras GTPase-activating protein-binding protein 1, full length (G3BP1, Homo sapiens, UniProt Q13283)
Sequence of UniProt Q13283 (whole entry, looked up): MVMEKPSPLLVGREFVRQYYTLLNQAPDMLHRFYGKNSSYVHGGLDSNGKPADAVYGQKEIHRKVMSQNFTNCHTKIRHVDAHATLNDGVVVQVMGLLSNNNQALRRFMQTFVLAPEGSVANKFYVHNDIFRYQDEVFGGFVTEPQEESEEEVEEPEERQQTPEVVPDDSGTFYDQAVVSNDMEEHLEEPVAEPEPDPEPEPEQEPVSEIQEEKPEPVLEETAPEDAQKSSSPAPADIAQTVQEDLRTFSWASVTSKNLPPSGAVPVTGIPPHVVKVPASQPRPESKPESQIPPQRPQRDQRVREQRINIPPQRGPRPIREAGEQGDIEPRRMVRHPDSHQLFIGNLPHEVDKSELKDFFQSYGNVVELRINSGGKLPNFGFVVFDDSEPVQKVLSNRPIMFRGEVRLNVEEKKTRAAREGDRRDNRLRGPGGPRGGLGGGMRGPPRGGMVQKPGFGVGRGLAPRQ
Technique: RNA Bind-n-Seq
Molecule type: RNA
Medium: in vitro
Tested at: 200 nM
Notes: whole 134-nt RNA, ends assumed
With: 150 mM LiCl
Baseline: input library
Direction: higher = stronger binding
All molecules: 7-deaza-guanosine replaces G
Oligonucleotide | log2 enrichment
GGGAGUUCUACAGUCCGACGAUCUCCUGUGCUACACAUCGUAUGUACCGAAUCGGGAAAAAGGGUUUUUGGGUUUUUUUGGGAAAGUAUUAUGUUACGCCGUUCGGAUCUGCAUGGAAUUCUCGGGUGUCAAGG | -1.65
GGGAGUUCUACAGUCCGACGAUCCACAGACAACACGCACCCACACAGACACAGAGGGAAGGGGUUGGGAGGGGGACAGGGUGCACAGCAGGGCGGGGUAGGACCCCAGCCCCUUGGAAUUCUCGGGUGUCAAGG | 0.621
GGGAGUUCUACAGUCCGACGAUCGCAGGAAGUAAAAACAAAUGGAAAUGCUUCGGAUAGUGGCAGGGGUGGGGGUUGCUCAGGAAAGGGUGGGAUGGGAGUGGGUAAAGAGUUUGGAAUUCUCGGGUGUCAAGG | 0.069
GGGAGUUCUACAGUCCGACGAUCUCCUGUGCUACACAUCGUAUGUACCGAAUCGGGUUUGGGUUUUUUUGGGAAAAAAAGGGAAAGUAUUAUGUUACGCCGUUCGGAUCUGCAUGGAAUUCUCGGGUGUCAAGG | -0.285
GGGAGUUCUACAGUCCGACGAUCUAACUUUAGAGGAGGAUCUGAUGGAUAUGGCAGUGGACGUGGAUUUGGGGAUGGCUAUAAUGGAUAUGGAGGAGGACCUGGAGGUGGCAAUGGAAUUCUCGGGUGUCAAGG | 0.244
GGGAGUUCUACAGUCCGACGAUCGCAGGAAGUAAAAACAAAUGGAAAUGCUUCGGAUCGUGGCAGGGGUGGGGGUUGCUAAGGAAAGGGUGGGAUGGGAGUGGGUAAAGAGUUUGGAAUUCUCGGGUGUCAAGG | 0.243
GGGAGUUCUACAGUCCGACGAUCAAGUCCUGUGCUACACAUCGUAUGUACCGAAUCGGGCCCCGGCCCCGGCCCCGGGGAAAGUAUUAUGUUACGCCGUUCGGAUCUGCACUUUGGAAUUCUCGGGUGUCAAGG | -0.394
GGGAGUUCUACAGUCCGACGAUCACCAUGCAGGUGGGCAUCUUUGGGAAGUGGGGCAAGGGGGGGAUAGGGAGGGGGGUUACACUUUGGGAACAGGUGGUCCCAGGUCGUUUCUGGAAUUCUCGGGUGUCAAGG | 0.143

Repeated from above (block 3):
Oligonucleotide | E-score
AACCCTCC | -0.119
CTTTATGC | 0.0175
GCGCGTCC | 0.392
GGAGCGGA | 0.223
CTGCCGGC | 0.418
GACATCGC | 0.217
